{"data": "Experimental data collected from several papers", "note": "Every numbered part comes from another study and shows a few of its results, in no order. ± marks the error that the study gave.", "UniProt Q6DT37, sequence (whole entry, looked up)": "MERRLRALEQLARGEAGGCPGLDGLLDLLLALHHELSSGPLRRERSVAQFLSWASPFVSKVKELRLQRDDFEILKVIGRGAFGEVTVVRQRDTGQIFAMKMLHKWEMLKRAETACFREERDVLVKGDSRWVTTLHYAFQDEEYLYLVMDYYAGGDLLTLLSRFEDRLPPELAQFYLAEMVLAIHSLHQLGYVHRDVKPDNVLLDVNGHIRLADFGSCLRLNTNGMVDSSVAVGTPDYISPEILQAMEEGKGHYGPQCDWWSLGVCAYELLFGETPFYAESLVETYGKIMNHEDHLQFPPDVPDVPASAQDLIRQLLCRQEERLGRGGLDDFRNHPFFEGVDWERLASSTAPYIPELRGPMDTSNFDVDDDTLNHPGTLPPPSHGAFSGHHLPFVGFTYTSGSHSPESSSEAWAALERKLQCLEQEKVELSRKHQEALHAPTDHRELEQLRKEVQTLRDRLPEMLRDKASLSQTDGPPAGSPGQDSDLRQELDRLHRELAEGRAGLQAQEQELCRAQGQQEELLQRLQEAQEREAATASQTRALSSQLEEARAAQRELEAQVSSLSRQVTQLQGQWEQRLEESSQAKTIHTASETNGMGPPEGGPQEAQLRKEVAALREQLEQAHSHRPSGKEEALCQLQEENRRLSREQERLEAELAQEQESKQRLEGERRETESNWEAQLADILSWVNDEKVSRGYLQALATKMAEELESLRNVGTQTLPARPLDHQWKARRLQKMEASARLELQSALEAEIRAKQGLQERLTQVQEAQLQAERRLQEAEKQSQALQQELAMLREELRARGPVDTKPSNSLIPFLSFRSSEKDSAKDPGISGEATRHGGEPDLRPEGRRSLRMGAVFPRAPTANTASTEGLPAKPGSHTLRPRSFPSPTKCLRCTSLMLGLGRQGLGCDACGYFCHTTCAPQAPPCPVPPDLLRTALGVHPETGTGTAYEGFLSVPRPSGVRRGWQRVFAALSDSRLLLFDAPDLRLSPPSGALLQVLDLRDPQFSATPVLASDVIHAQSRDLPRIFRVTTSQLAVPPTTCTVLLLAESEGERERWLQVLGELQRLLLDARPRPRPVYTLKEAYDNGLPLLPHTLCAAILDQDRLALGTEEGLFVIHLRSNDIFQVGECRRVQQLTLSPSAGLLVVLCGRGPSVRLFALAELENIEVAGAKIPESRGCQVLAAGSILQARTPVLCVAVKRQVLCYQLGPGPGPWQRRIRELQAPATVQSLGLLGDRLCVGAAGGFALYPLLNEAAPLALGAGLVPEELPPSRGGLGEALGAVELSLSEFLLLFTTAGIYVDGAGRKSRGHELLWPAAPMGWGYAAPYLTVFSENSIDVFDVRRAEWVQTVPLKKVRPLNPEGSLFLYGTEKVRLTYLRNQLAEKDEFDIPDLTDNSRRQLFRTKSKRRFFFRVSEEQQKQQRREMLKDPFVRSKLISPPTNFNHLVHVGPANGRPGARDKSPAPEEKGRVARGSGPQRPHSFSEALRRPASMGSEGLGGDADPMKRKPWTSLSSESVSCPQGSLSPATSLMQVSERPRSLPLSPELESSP", "UniProt P36507, sequence (whole entry, looked up)": "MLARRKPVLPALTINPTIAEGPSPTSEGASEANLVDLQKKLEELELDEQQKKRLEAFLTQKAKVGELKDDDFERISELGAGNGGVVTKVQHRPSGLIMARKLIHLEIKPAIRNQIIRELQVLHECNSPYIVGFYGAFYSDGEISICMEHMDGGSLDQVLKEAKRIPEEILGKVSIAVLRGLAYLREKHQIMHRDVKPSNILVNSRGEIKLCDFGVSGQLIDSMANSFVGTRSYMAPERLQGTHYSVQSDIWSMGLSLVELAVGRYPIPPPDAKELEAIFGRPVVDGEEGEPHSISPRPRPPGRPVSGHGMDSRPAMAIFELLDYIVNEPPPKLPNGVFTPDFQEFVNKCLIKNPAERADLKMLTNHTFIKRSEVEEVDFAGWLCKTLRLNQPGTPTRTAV", "UniProt P54762, sequence (whole entry, looked up)": "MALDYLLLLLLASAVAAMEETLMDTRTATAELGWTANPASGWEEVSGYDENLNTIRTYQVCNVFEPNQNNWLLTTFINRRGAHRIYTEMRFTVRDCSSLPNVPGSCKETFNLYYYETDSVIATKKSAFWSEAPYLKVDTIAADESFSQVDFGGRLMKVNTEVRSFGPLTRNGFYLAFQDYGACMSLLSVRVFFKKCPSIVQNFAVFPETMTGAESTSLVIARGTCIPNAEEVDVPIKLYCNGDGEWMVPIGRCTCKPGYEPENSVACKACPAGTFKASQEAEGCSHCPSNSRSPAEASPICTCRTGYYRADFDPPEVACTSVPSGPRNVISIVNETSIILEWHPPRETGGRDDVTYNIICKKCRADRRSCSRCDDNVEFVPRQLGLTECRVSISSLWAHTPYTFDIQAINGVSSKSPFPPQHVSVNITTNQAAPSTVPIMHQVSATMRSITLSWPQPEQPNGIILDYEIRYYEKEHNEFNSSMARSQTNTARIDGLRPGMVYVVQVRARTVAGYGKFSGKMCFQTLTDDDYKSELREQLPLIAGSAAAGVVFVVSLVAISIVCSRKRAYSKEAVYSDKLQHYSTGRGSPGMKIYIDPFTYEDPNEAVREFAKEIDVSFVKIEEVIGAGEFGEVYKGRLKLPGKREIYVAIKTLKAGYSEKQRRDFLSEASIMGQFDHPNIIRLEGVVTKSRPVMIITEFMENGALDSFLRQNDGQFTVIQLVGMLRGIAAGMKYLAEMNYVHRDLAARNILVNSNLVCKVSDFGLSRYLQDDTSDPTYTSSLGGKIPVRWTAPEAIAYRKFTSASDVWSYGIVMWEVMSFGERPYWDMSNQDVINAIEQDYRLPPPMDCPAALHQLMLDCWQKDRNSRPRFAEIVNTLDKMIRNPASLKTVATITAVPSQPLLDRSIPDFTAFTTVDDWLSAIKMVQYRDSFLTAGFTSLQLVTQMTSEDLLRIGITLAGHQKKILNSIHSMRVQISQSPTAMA"}
{"data": "Set 1", "SMILES": "C[C@@H]1CN(c2ccc(-c3cc(C(=O)NCCOCCOCCOCCOCCNC(=O)/C=C/c4[nH]cc(C(=O)N[C@@H](CC(N)=O)c5ccc(F)c(Cl)c5)c4-c4ccc(Cl)cc4F)ccc3F)cc2NC(=O)c2c[nH]c(=O)cc2C(F)(F)F)C[C@H](C)N1C", "effect on": "thermal unfolding", "method": "differential scanning fluorimetry", "concentration": "5.5 µM", "reading": "higher = more unfolded", "WDR5": "WD repeat-containing protein 5 (WDR5, Homo sapiens, UniProt P61964)", "DCAF1": "DDB1- and CUL4-associated factor 1 (DCAF1, Homo sapiens, UniProt Q9Y4B6)", "UniProt Q9Y4B6, sequence (whole entry, looked up)": "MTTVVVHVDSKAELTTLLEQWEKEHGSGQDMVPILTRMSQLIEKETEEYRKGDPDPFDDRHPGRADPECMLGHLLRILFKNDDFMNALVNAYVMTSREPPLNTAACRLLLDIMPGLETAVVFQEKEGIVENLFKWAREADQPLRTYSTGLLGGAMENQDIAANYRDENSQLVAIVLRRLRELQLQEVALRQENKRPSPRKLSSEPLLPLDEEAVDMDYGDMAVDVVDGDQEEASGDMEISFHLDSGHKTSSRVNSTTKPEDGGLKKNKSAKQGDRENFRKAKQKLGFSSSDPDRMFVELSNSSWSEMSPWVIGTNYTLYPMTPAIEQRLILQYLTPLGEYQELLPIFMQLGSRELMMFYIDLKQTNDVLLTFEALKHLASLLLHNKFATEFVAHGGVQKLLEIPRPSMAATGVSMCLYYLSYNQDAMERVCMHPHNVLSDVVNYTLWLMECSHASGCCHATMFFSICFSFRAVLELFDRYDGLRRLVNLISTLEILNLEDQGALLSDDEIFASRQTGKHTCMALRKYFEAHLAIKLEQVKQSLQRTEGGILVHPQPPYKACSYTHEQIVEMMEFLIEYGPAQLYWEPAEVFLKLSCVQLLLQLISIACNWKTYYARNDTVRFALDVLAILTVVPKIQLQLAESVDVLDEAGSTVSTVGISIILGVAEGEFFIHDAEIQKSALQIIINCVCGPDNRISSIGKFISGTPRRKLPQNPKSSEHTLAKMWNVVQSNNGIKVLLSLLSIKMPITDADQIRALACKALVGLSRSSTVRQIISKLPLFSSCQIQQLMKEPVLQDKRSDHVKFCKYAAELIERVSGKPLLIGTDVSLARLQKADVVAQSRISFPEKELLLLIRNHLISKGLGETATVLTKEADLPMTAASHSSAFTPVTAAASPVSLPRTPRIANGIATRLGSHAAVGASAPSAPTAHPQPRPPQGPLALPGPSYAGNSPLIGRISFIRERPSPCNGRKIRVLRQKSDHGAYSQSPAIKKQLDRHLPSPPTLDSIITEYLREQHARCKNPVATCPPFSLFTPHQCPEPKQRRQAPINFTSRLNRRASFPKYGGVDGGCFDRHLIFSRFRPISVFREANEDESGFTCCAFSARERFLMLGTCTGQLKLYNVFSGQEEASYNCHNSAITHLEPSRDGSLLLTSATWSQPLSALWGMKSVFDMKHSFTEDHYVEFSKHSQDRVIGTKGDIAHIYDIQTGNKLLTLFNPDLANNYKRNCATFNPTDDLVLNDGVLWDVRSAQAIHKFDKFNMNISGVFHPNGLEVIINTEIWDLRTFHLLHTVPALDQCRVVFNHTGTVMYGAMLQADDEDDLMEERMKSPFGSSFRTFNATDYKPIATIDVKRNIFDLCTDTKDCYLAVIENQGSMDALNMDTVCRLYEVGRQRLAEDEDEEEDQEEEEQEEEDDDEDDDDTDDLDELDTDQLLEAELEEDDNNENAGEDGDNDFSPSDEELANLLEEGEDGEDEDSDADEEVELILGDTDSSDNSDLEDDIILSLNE"}
{"target": "WDR5", "conditions": "85.61 °C", "SYPRO Orange fluorescence [a.u.]": 53000}
{"target": "DCAF1", "conditions": "33.6 °C", "SYPRO Orange fluorescence [a.u.]": 9840}
{"target": "WDR5", "conditions": "43.6 °C", "SYPRO Orange fluorescence [a.u.]": 15000}
{"target": "WDR5", "conditions": "67.61 °C", "SYPRO Orange fluorescence [a.u.]": 14200}
{"target": "DCAF1", "conditions": "48.6 °C", "SYPRO Orange fluorescence [a.u.]": 14600}
{"target": "DCAF1", "conditions": "31 °C", "SYPRO Orange fluorescence [a.u.]": 9640}
{"target": "DCAF1", "conditions": "34.2 °C", "SYPRO Orange fluorescence [a.u.]": 9970}
{"target": "WDR5", "conditions": "68.81 °C", "SYPRO Orange fluorescence [a.u.]": 15000}
{"target": "WDR5", "conditions": "74.81 °C", "SYPRO Orange fluorescence [a.u.]": 25400}
{"target": "DCAF1", "conditions": "66.21 °C", "SYPRO Orange fluorescence [a.u.]": 59400}
{"target": "WDR5", "conditions": "34 °C", "SYPRO Orange fluorescence [a.u.]": 13200}
{"data": "Set 2", "SMILES": "COc1cc(-c2nc3ccc(C(=O)NCCCN(C)C)cc3n2C2CCC2)cc(OC)c1OC", "concentration": "1 µM"}
{"target": "TNK2 (Homo sapiens, UniProt Q07912)", "test": "binding, competition with immobilised ligand", "remaining binding [%]": 100}
{"target": "FLT3 (Homo sapiens, UniProt P36888, D835H)", "test": "binding, competition with immobilised ligand", "remaining binding [%]": 93}
{"target": "MAP2K2 (Homo sapiens, UniProt P36507)", "test": "binding, competition with immobilised ligand", "remaining binding [%]": 98}
{"target": "PRKACA (Homo sapiens, UniProt P17612)", "test": "binding, competition with immobilised ligand", "remaining binding [%]": 94}
{"target": "EPHB1 (Homo sapiens, UniProt P54762)", "test": "binding, competition with immobilised ligand", "remaining binding [%]": 71}
{"target": "SBK1 (Homo sapiens, UniProt Q52WX2)", "test": "binding, competition with immobilised ligand", "remaining binding [%]": 100}
{"target": "CDC42BPG (Homo sapiens, UniProt Q6DT37)", "test": "KINOMEscan", "how to read": "reference: control", "remaining binding [%]": 89}
{"target": "MYLK4 (Homo sapiens, UniProt Q86YV6)", "test": "binding, competition with immobilised ligand", "remaining binding [%]": 96}
{"target": "TGFBR1 (Homo sapiens, UniProt P36897)", "test": "binding, competition with immobilised ligand", "remaining binding [%]": 67}
{"target": "TRPM6 (Homo sapiens, UniProt Q9BX84)", "test": "binding, competition with immobilised ligand", "remaining binding [%]": 100}
{"target": "MYLK2 (Homo sapiens, UniProt Q9H1R3)", "test": "binding, competition with immobilised ligand", "remaining binding [%]": 88}
{"target": "PLK1 (Homo sapiens, UniProt P53350)", "test": "binding, competition with immobilised ligand", "remaining binding [%]": 99}
{"data": "Set 3", "SMILES": "CC[C@@]1(c2cccc(C(F)(F)F)c2)C2=C(Nc3n[nH]cc31)[C@H](F)C(C)(C)CC2=O (single isomer, unassigned)", "setting": "scaled"}
{"test system": "human hepatocytes", "intrinsic clearance [mL/min/kg]": 9.2}
{"test system": "human liver microsomes", "intrinsic clearance [mL/min/kg]": 15.2}
{"test system": "rat liver microsomes", "intrinsic clearance [mL/min/kg]": 56.1}
{"test system": "rat hepatocytes", "intrinsic clearance [mL/min/kg]": 7.5}
{"data": "Mixed results", "target": "Tyrosine-protein kinase BTK (BTK, Homo sapiens, UniProt Q06187)", "UniProt Q06187, sequence (whole entry, looked up)": "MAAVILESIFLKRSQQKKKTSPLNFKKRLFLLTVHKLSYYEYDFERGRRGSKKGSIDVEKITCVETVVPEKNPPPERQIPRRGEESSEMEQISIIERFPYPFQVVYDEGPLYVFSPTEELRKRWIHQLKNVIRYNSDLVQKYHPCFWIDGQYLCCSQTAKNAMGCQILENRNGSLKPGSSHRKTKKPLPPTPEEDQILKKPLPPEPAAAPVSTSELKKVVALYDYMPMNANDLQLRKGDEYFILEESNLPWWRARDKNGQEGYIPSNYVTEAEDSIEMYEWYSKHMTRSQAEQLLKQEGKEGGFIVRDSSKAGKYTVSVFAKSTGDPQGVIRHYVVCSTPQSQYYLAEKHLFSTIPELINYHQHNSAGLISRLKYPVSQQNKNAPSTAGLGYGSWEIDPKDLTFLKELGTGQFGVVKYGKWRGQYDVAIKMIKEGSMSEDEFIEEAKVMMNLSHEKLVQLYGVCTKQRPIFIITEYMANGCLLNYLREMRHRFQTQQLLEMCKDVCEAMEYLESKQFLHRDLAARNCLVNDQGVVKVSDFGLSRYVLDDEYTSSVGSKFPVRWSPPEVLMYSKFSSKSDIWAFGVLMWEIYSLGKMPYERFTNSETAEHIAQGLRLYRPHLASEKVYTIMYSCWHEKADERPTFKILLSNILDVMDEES"}
{"Structure (SMILES)": "CN(C1COC1)C(C)(C)C=C(C#N)C(=O)N1CCCC1Cn1nc(-c2ccc(Oc3ccccc3)cc2F)c2c(N)ncnc21 (stereo not drawn)", "test": "enzyme activity, inhibitor", "conditions": "15 min preincubation, with: 16 µM ATP", "endpoint": "IC50", "result": "4.4 ± 0.8 nM"}
{"Structure (SMILES)": "CC(C)/C=C(\\C#N)C(=O)N1CCC[C@@H](n2nc(-c3ccc(Oc4ccccc4)cc3)c3c(N)ncnc32)C1", "test": "fluorescence competition", "conditions": "room temperature", "endpoint": "residence time", "result": "5460 ± 360 min"}
{"Structure (SMILES)": "CC(C)(C=C(C#N)C(=O)N1CCCC1Cn1nc(-c2ccc(Oc3ccccc3)cc2F)c2c(N)ncnc21)N1CCOCC1 (stereo not drawn)", "test": "enzyme activity, inhibitor", "conditions": "15 min preincubation, with: 16 µM ATP", "endpoint": "IC50", "result": "1.9 ± 0.2 nM"}
{"note": "A few entries again (set 1):"}
{"target": "WDR5", "conditions": "74.81 °C", "SYPRO Orange fluorescence [a.u.]": 25400}
{"target": "DCAF1", "conditions": "48.6 °C", "SYPRO Orange fluorescence [a.u.]": 14600}
{"target": "DCAF1", "conditions": "34.2 °C", "SYPRO Orange fluorescence [a.u.]": 9970}
{"target": "WDR5", "conditions": "43.6 °C", "SYPRO Orange fluorescence [a.u.]": 15000}
